Published values collected from several papers.
A part holds a random share of what one study measured.

Study 1 — technique: protein-binding microarray; molecule type: double-stranded DNA, one strand shown; matrix: in vitro; tested at: 0.8 µM; notes: whole 60-bp probe, no competitor; direction: higher = stronger binding; shared flanks, not repeated: … GTCTTGATTCGCTTGACGCTGCTG
Target: Centromere-binding protein 1, full length, N-terminal tag (CBF1, Saccharomyces cerevisiae, UniProt P17106, residues 1-351)
UniProt P17106, sequence (whole entry, looked up): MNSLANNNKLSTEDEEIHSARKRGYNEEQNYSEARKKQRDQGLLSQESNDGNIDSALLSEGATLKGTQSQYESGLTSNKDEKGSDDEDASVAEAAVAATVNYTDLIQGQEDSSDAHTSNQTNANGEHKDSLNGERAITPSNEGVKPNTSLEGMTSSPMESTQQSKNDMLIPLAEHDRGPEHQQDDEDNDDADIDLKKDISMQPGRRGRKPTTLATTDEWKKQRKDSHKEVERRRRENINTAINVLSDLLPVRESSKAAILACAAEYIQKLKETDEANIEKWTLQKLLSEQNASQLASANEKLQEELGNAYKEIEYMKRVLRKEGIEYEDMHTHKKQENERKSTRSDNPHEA
| Strand | fluorescence intensity [a.u.] |
| --- | --- |
| TGTACGAAGCTATATCACGTTTTTATAGTAGTTAGG | 1500 |
| CTATCTAAGAGTTGCCGTGCCTTTCCATCCGCTTTC | 510 |
| TGTACGAAGCTATGATGTAAAATTATAGTAGTTAGG | 526 |
| TGTACGAAGCTATATCACAAAAATATAGTAGTTAGG | 614 |
| CCTAACTACTATAGTAACATCACATAGCTTCGTACA | 532 |
| GAACGTCAACATTCAGTGATGATGATCGTTCGGTAG | 496 |
| CTACTATTATATTATCACGTACGGTATAAGAAGTTC | 724 |
| GAACTAAAGGAGGTGCACGCATTATGGAGACCATAG | 535 |

Study 2 — technique: RNA Bind-n-Seq; molecule type: RNA; matrix: in vitro; tested at: 365 nM; relative to: no-protein control; direction: higher = stronger binding
Target: RNA binding protein fox-1 homolog 2, RRM domain, GST-SBP tag (RBFOX2, Homo sapiens, UniProt O43251-10, residues 100-194)
Notes: natural RNA segment, single round, ends assumed
Shared flanks, not repeated: GGGAGUUCUACAGUCCGACGAUC … UGGAAUUCUCGGGUGCCAA
Target sequence (chain): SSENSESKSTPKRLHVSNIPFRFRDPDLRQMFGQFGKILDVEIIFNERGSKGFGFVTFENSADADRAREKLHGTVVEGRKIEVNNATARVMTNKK
| Strand | RBNS enrichment (R) |
| --- | --- |
| AAAUAUAUUUAUAAGGACCUAUUCCAAUAGGCUCUUGGUGUUUCCCAUAUCAAGAUUUCUGCUAGCUAAUGCAUAGAGGGAAUACUGUCUAAAAAUAGACCCUUUCUUCC | 0.52 |
| UUUUUCUUGAAUUGUAGCCAGUGAGAAAAGCAGAUAGACUGAAGAAUAUGAAGGAUAGCUGAGCUGUAGCCUCCAGAGUGGGGCAUGCCUAGGCAUAUGGCUGGCUUGGA | 0.771 |
| CCUGAAGAGUGAUAUUUGUACAAUAGCUUUCUUCUUUAUUUAAAUAAACAUUUGUAUUGUAGUUGGGUUCUGAAGUCCAUUCUGGCUCUGCUACUUAACAGUGUAUAAUC | 0.277 |
| UCUUGUCCCCUUUGUAAGAAAGAGAUGCUUGCCAUAGAGAAGGACAUGAGUACAUUAAAAAUAAUUUAAUAGCCACAAUAUGAUGUUCUUUAAGCUGCAAAUUGAGUACA | 1.17 |
| UCCUCUCUAAACAUAAUGAGGAAUCUCAGCAAUGAACUGGCUUCCCACCAGAGGGAAGAGUCUCUUGUGGGUGUGUUGGGUCUCCUAAUAAGAUGACUCUCCAUCUAGAU | 0.503 |
| GCUGUGGGGUCCAAAACCCUAAGGGCUCCAAUCCCACCCACAUUCUUUCUCGGUCUUUGUCUCUCUUUCUUCCUUUCCUUUCUAUUUCCCCCAGGGUCUCCUGUUAACCA | 0.812 |
| AGUGCAGUGGUCUUCAUCUUCCCCAACUUGCUUCUCAGAGCUGGGAUGUAUUCCAGAGCCUGAUGUUUUUAUUCAAACCACAGAAAAGUUUUCUUUAAGUAGCCUGUGCA | 1.13 |
| GCUCAUAGUGUUUGAAAGUGAUGUCCAUUAGUGGGACCGUAGCAUGCUUGCCUCGCAUAGAGUGCAGUUGGUAUUCAUUUACCUAUGUGCGCCAGUUUGGGUUGCCGUUA | 6.24 |

Study 3 — mode: inhibitor; tested at: 20 µM
Target: Replicase polyprotein 1ab, nsp13 helicase (rep, Severe acute respiratory syndrome coronavirus 2, UniProt P0DTD1)
| SMILES | inhibition [%] |
| --- | --- |
| O=C1Nc2ccc(Cl)c3c2C1(CCCCN1CC=C(c2ccc(Cl)cc2)CC1)CCC3 (stereo not drawn) | 4.1 |
| CCC[C@@H]1CC2=CC(=O)CC[C@]2(C)[C@H]2CC[C@@]3(C)[C@@H](CC[C@@]3(O)CCC(=O)O)[C@H]12 | 3.97 |
| COc1ccc(NS(=O)(=O)c2sc3ccc(Cl)cc3c2C)cc1N1CCNCC1 | 5.7 |
| CCCCCCCCCCC[C@@H](C[C@@H]1OC(=O)[C@H]1CCCCCC)OC(=O)[C@H](CC(C)C)NC=O | 4.67 |
| CC(=O)O[C@H]1CC[C@@]2(C)C(=CC(=O)[C@@H]3[C@@H]2CC[C@]2(C)C(=O)CC[C@@H]32)C1 | 0.81 |
| CC(C)(N)C(=O)N[C@H](COCc1ccccc1)C(=O)N1CCC2(CC1)CN(S(C)(=O)=O)c1ccccc12 | 5.8 |
| COCCCOc1cc(C[C@@H](C[C@H](N)[C@@H](O)C[C@H](C(=O)NCC(C)(C)C(N)=O)C(C)C)C(C)C)ccc1OC | 6.2 |
| O=c1[nH]c2ccccc2n1CCCN1CCN(C(c2ccccc2)c2ccccc2)CC1 | 11.2 |
| O=C(Cc1ccc(-c2ccc(OCCN3CCOCC3)cc2)cn1)NCc1ccccc1 | 0.79 |
| CCCC(C)NC(=O)c1ccc(Cl)c(Cl)c1 (stereo not drawn) | 2.52 |
| CC(=O)O[C@]1(C(C)=O)CC[C@H]2[C@@H]3C=C(C)C4=CC(=O)CC[C@@H]4[C@H]3CC[C@@]21C | 6.83 |
| CCN(CC)CC1CCCCN1CC(=O)N1c2ccccc2C(=O)Nc2cccnc21 (stereo not drawn) | 5.37 |
| O=C(NNc1ccccc1)c1ccncc1 | 7.01 |
| COC(=O)N[C@H](C(=O)N[C@@H](Cc1ccccc1)[C@@H](O)CN(Cc1ccc(-c2ccccn2)cc1)NC(=O)[C@@H](NC(=O)OC)C(C)(C)C)C(C)(C)C | 4.46 |
| CC1(C)[C@@H]2C[C@@H](O)[C@@](C)(O)[C@H]1C2 | 8.41 |
| S=P(N1CC1)(N1CC1)N1CC1 | -5.42 |
| NCCCCCC(=O)O | 5.55 |
| CC[C@H](C)C(=O)O[C@H]1C[C@H](O)C=C2C=C[C@H](C)[C@H](CC[C@@H](O)C[C@@H](O)CC(=O)O)[C@H]21 | 6.27 |
| CCC/C=C1\OC(=O)C2=C1CCC=C2 | 4.53 |
| NCCC(O)(P(=O)(O)O)P(=O)(O)O | 6.3 |
| O=C(Nc1ccc(OC(F)(F)F)cc1)c1sccc1NCc1ccnc2ccccc12 | 6.98 |
| CCCCCCCCCCCCCC(=O)OC(C)C | -0.42 |
| C=C[C@H]1CN2CC[C@H]1C[C@@H]2[C@@H](O)c1ccnc2ccccc12 | -29.7 |
| C=C1CC[C@H](O)C/C1=C/C=C1\CCC[C@]2(C)[C@@H]([C@H](C)CCCC(C)(C)O)CC[C@@H]12 | 13.1 |
| C#CC[C@H](c1nc2cc(Cl)ccc2c(=O)n1Nc1ccccc1)N(CCCN)C(=O)c1cccc(Cl)c1F | 12.1 |

Study 4 — cell line: HEK-293T-ACE2; tested at: concentration not given; relative to: vehicle
| Structure (SMILES) | cell number [%] |
| --- | --- |
| Cl.O=C1[C@@H]2[C@H]3CC[C@H](C3)[C@@H]2C(=O)N1C[C@@H]1CCCC[C@H]1CN1CCN(c2nsc3ccccc23)CC1 | 96.9 |
| O=C(/C=C/c1cccc(S(=O)(=O)Nc2ccccc2)c1)NO | 54.8 |
| CCCCCCCCc1ccc(CCC(N)(CO)CO)cc1.Cl | 78.5 |
| CNC(=O)c1ccc(N2C(=S)N(c3ccc(C#N)c(C(F)(F)F)c3)C(=O)C2(C)C)cc1F | 102 |

Study 5 — read-out: enzyme activity; mode: inhibitor
Target: Replicase polyprotein 1ab, main protease (rep, Severe acute respiratory syndrome coronavirus 2, UniProt P0DTD1)
| Structure (SMILES) | IC50 [µM] |
| --- | --- |
| CCC1=C[C@@H]2CN(C1)Cc1c([nH]c3ccccc13)[C@@](C(=O)OC)(c1cc3c(cc1OC)N(C)[C@H]1[C@@](O)(C(=O)OC)[C@H](OC(C)=O)[C@]4(CC)C=CCN5CC[C@]31[C@@H]54)C2 | > 20 |
| COc1ccc(C(=O)n2nc(-c3ccccc3)nc2N)cc1OC | > 20 |
| Nc1c[n+](N2CCOCC2)no1 | > 20 |
| O=C(c1cccs1)c1no[n+]([O-])c1C(=O)c1cccs1 | > 20 |

Study 6 — technique: RNAcompete; molecule type: RNA; matrix: in vitro; tested at: 20 nM; notes: 7-mer, probes averaged, single round; relative to: mean of 7-mers; direction: higher = stronger binding
Target: PABPC1L2, full length, GST fusion (mouse, UniProt A0ABA7IW68)
Construct (chain): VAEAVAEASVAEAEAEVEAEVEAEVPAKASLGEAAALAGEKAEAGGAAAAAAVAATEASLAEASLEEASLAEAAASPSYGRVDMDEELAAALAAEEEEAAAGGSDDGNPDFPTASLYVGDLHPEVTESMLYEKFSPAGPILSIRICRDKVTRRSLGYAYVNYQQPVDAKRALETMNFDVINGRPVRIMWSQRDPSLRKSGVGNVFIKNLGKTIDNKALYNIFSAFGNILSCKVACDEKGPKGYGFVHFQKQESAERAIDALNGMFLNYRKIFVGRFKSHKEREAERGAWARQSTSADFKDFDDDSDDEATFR
| Strand | 7-mer Z-score |
| --- | --- |
| GCUCCGC | -0.385 |
| CUUAAAC | 0.282 |
| UGUGUUU | -0.454 |
| GUGUUUG | -0.44 |
| UCCCGCU | -0.472 |
| AGAUGUU | -0.353 |
| AUCGAAA | 0.717 |
| CUAAAGG | 0.238 |

For quick reference, copied from above (study 2):
| Strand | RBNS enrichment (R) |
| --- | --- |
| UUUUUCUUGAAUUGUAGCCAGUGAGAAAAGCAGAUAGACUGAAGAAUAUGAAGGAUAGCUGAGCUGUAGCCUCCAGAGUGGGGCAUGCCUAGGCAUAUGGCUGGCUUGGA | 0.771 |
| AGUGCAGUGGUCUUCAUCUUCCCCAACUUGCUUCUCAGAGCUGGGAUGUAUUCCAGAGCCUGAUGUUUUUAUUCAAACCACAGAAAAGUUUUCUUUAAGUAGCCUGUGCA | 1.13 |
| GCUCAUAGUGUUUGAAAGUGAUGUCCAUUAGUGGGACCGUAGCAUGCUUGCCUCGCAUAGAGUGCAGUUGGUAUUCAUUUACCUAUGUGCGCCAGUUUGGGUUGCCGUUA | 6.24 |
| UCCUCUCUAAACAUAAUGAGGAAUCUCAGCAAUGAACUGGCUUCCCACCAGAGGGAAGAGUCUCUUGUGGGUGUGUUGGGUCUCCUAAUAAGAUGACUCUCCAUCUAGAU | 0.503 |
| CCUGAAGAGUGAUAUUUGUACAAUAGCUUUCUUCUUUAUUUAAAUAAACAUUUGUAUUGUAGUUGGGUUCUGAAGUCCAUUCUGGCUCUGCUACUUAACAGUGUAUAAUC | 0.277 |
| AAAUAUAUUUAUAAGGACCUAUUCCAAUAGGCUCUUGGUGUUUCCCAUAUCAAGAUUUCUGCUAGCUAAUGCAUAGAGGGAAUACUGUCUAAAAAUAGACCCUUUCUUCC | 0.52 |
| GCUGUGGGGUCCAAAACCCUAAGGGCUCCAAUCCCACCCACAUUCUUUCUCGGUCUUUGUCUCUCUUUCUUCCUUUCCUUUCUAUUUCCCCCAGGGUCUCCUGUUAACCA | 0.812 |
